Published values from different studies.
Lines come from different studies, so protocols differ. Several values in a cell are separate wells, animals, samples, runs or records. Numbers after ± are the reported error.
CDK5 with p25: Cyclin-dependent kinase 5, with p25 (CDK5, Homo sapiens, UniProt Q00535)
Sequence of UniProt Q00535 (whole entry, looked up): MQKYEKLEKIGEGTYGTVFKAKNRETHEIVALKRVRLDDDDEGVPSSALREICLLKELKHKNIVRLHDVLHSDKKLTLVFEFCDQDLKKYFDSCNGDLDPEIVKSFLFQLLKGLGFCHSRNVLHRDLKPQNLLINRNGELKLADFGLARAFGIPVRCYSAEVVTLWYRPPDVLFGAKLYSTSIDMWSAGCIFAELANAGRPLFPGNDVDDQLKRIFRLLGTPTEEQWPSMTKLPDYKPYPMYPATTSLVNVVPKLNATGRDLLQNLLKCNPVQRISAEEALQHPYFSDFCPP
B1: human dermcidin; sequence looked up; chain YDPEAASAPGSGNPCHEASAAQKENAGEDPGLARQAPKPRKQRSSLLEKGLDGAKKAVGGLGKLGKDAVEDLESVGKGAVHDVKDVLDSVL
B2: human IGHG2; sequence looked up; chain ASTKGPSVFPLAPCSRSTSESTAALGCLVKDYFPEPVTVSWNSGALTSGVHTFPAVLQSSGLYSLSSVVTVPSSNFGTQTYTCNVDHKPSNTKVDKTVERKCCVECPPCPAPPVAGPSVFLFPPKPKDTLMISRTPEVTCVVVDVSHEDPEVQFNWYVDGVEVHNAKTKPREEQFNSTFRVVSVLTVVHQDWLNGKEYKCKVSNKGLPAPIEKTISKTKGQPREPQVYTLPPSREEMTKNQVSLTCLVKGFYPSDISVEWESNGQPENNYKTTPPMLDSDGSFFLYSKLTVDKSRWQQGNVFSCSVMHEALHNHYTQKSLSLSPELQLEESCAEAQDGELDGLWTTITIFITLFLLSVCYSATITFFKVKWIFSSVVDLKQTIVPDYRNMIRQGA
Sequence of UniProt Q64663 (whole entry, unmodified, looked up): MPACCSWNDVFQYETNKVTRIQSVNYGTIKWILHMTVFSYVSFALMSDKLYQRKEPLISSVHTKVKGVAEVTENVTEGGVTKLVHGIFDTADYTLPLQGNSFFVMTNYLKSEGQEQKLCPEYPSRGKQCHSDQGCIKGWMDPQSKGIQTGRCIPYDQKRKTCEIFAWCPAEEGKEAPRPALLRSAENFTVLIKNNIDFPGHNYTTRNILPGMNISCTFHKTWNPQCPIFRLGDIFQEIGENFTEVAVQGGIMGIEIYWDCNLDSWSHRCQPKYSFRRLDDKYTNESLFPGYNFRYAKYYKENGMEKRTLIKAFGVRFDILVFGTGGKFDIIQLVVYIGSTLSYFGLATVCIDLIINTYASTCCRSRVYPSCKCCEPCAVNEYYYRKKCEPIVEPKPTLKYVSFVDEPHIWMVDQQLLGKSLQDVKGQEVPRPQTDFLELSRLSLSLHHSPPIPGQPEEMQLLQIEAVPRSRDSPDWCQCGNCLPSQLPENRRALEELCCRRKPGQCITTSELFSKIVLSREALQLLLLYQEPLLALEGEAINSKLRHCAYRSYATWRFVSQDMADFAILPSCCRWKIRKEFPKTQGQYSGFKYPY
Sequence of UniProt Q5ANA3 (whole entry, looked up): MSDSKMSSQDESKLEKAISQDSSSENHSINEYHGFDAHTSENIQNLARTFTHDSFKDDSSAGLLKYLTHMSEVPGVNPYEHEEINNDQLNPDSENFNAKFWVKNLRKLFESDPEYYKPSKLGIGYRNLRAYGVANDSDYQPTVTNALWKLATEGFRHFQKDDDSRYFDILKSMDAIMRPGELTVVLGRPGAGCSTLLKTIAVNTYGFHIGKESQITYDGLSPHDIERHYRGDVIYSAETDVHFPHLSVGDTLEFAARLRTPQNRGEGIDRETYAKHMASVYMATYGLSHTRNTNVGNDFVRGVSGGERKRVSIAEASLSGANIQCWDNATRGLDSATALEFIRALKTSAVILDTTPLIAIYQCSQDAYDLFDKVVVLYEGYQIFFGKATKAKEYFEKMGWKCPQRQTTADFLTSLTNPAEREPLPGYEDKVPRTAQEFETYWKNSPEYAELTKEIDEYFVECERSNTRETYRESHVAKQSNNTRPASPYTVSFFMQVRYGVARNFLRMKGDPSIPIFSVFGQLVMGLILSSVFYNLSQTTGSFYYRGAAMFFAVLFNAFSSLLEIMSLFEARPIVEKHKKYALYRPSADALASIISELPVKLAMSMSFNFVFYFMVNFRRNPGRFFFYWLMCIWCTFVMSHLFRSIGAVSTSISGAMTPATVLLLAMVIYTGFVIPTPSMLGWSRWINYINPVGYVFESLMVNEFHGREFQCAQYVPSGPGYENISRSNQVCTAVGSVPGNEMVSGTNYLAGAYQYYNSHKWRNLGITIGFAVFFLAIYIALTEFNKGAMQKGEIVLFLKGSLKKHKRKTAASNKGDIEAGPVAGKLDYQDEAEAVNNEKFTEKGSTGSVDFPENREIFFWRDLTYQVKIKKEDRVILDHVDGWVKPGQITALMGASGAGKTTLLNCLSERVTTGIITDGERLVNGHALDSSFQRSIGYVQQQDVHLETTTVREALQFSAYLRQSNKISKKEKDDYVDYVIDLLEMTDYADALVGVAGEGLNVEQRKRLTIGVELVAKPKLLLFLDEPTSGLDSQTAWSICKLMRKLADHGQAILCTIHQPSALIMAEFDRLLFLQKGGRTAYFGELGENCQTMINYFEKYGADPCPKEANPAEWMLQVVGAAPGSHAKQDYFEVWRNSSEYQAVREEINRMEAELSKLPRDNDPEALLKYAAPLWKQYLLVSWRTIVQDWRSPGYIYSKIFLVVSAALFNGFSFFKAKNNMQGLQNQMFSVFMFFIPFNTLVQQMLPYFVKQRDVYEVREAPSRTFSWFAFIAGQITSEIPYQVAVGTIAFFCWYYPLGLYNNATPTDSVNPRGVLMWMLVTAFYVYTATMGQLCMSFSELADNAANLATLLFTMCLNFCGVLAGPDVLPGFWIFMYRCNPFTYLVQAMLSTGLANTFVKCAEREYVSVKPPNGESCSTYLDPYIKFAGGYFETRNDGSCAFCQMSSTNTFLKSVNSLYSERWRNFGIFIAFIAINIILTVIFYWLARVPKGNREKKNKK
Sequence of UniProt P26368 (whole entry, looked up): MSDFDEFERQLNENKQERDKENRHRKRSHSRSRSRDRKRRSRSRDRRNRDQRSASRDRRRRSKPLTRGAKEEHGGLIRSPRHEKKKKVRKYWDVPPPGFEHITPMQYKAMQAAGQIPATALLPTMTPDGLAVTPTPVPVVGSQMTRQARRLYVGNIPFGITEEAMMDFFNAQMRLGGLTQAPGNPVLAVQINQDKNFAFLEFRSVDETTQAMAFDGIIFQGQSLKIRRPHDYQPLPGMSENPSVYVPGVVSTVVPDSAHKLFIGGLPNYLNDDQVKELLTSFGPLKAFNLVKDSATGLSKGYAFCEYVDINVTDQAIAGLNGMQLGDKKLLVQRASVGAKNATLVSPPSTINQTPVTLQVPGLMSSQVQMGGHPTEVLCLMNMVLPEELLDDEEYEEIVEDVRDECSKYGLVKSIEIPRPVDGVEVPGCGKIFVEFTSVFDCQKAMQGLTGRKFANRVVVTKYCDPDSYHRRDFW

Substance	tested on	test	system	setting	scale	quantity	result
human ME2 Q101T		enzyme activity, NADH absorbance		without fumarate, together with: L-malate varied		Hill coefficient	1.75 ± 0.06
milbemycin oxime	CDR1 (Candida albicans, UniProt Q5ANA3)	binding, microscale thermophoresis		19.5 nM		fraction bound	9.33%
human ME2 R91A		enzyme activity, NADH absorbance		without fumarate, together with: L-malate varied		Hill coefficient	1 ± 0.01
KEAFWDRCLSVINLCSSKMLQINA	CDK5 with p25	phosphotransferase activity, radiometric	peptide	concentration not given, 10% DMSO, together with: histone substrate	reference: p5-WT peptide	activity change	58%
11-deoxycorticosterone	CYP11B2 (human)	substrate binding, stopped-flow global kinetic fitting	purified enzyme	3-state conformational selection model, together with: equimolar adrenodoxin		rate constant k1	0.335 ± 0.0299 s⁻¹
human ME2 K57S		enzyme activity, NADH absorbance		without fumarate, together with: L-malate varied		Hill coefficient	1 ± 0.01
GGCUUUCUG (ssRNA)	U2AF2 148-342 (Homo sapiens, UniProt P26368)	sequencing of bound RNA	RNA	motif only		Kd	700 nM
B1 (human dermcidin)	CYB5R4 knockout human cells	PP4 interaction, 3xFLAG-PP4C IP-MS		concentration not given	reference: CYB5R4 KO over parental	log2 fold change	0.42
KEAWWDRCLSVINLMSSKMLQINA	CDK5 with p25	phosphotransferase activity, radiometric	peptide	concentration not given, 10% DMSO, together with: histone substrate	reference: p5-WT peptide	activity change	26%
BzATP	P2X purinoceptor 7 (P2rx7, Rattus norvegicus, UniProt Q64663, I214A)	ion current, agonist, two-electrode voltage clamp	Xenopus oocytes	100 µM		normalized current	0.971 and 1 and 0.921
KEAFWDRCLSVINLMSSKMVQINA	CDK5 with p25	phosphotransferase activity, radiometric	peptide	concentration not given, 10% DMSO, together with: histone substrate	reference: p5-WT peptide	activity change	17%
B2 (human IGHG2)	PP6C (human)	co-immunoprecipitation, IP-MS	CYB5R4 knockout cells	concentration not given	reference: CYB5R4 knockout over parental	log2 fold change	-0.75

Repeated from above:
Substance	tested on	test	system	setting	scale	quantity	result
KEAFWDRCLSVINLCSSKMLQINA	CDK5 with p25	phosphotransferase activity, radiometric	peptide	concentration not given, 10% DMSO, together with: histone substrate	reference: p5-WT peptide	activity change	58%
11-deoxycorticosterone	CYP11B2 (human)	substrate binding, stopped-flow global kinetic fitting	purified enzyme	3-state conformational selection model, together with: equimolar adrenodoxin		rate constant k1	0.335 ± 0.0299 s⁻¹
